Measurements of several laboratories.
Each numbered part is a random draw from the data of one study; scales do not carry over between parts.

Block 1 — technique: RNA Bind-n-Seq; molecule type: RNA; medium: in vitro; tested at: 200 nM; setting: whole 134-nt RNA, ends assumed; together with: 150 mM LiCl; reference: input library; direction: higher = stronger binding; all molecules: 7-deaza-guanosine replaces G
Target: Ras GTPase-activating protein-binding protein 1, full length (G3BP1, Homo sapiens, UniProt Q13283)
UniProt Q13283, sequence (whole entry, looked up): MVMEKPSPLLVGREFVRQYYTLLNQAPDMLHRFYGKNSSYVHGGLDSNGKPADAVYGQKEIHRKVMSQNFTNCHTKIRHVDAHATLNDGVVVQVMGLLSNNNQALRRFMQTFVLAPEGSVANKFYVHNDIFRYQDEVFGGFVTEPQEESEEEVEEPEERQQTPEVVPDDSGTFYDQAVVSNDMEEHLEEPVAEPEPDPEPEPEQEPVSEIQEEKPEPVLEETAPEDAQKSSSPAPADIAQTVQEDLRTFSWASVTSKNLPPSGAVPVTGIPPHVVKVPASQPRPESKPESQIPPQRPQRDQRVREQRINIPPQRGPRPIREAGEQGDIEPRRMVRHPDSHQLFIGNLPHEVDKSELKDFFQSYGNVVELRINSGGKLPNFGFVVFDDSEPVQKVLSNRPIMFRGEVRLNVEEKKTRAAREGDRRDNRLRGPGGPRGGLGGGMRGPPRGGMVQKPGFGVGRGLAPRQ
Strand | log2 enrichment
GGGAGUUCUACAGUCCGACGAUCCUCAAGUCCUGUGCUACACAUCGUAUGUACCGAAUCGGGGCCGGCCGGCCGGGGAAAGUAUUAUGUUACGCCGUUCGGAUCUGCACUUCCUGGAAUUCUCGGGUGUCAAGG | 0.738
GGGAGUUCUACAGUCCGACGAUCUGGGAGGUGGAUGUUGUUUAUUUUUUUAGCUCAUUUCCAGGGGUGGGAAUUUUUUUUUAAUAUGUGUCAUGAAUAAAGUUGUUUUUGAAAUGGAAUUCUCGGGUGUCAAGG | -0.104
GGGAGUUCUACAGUCCGACGAUCAGUCCUGUGCUACACAUCGUAUGUACCGAAUCGGCCCCCGGGCCCCCGGCCCCCGGGGAAAGUAUUAUGUUACGCCGUUCGGAUCUGCACUGGAAUUCUCGGGUGUCAAGG | 0.296
GGGAGUUCUACAGUCCGACGAUCACCAUGCAGGUGGGCAUCUUUGGGAAGUGGGGCAAGGGGGGGAUAGGGAGGGGGGUAACACUUUGGGAACAGGUGGUCCCAGGUCAUUUCUGGAAUUCUCGGGUGUCAAGG | 0.196

Block 2 — technique: universal PBM; molecule type: double-stranded DNA, one strand shown; medium: in vitro; tested at: not given; direction: higher = stronger binding
Target: Sal-like protein 4, full length isoform B (SALL4, Homo sapiens, UniProt Q9UJQ4-2, residues 1-616)
Setting: 8-mer, flanks averaged, mean of replicates
Strand | E-score
AGAGATAA | 0.213
CATTCTCG | -0.0623
CCCAGTGA | -0.177
AAAAGGCC | -0.126
GAGTGTTA | 0.133
AGATCTCG | -0.129
CTCAGAGA | -0.232
GACTGCGA | -0.139
ATCTAGGC | -0.0763
AGAGGAGC | -0.149
CCCATACC | -0.0557
ACTACGGC | -0.234

Block 3 — technique: RNA Bind-n-Seq; molecule type: RNA; medium: in vitro; tested at: 365 nM; reference: no-protein control; direction: higher = stronger binding
Target: RNA binding protein fox-1 homolog 2, RRM domain, GST-SBP tag (RBFOX2, Homo sapiens, UniProt O43251-10, residues 100-194)
Setting: natural RNA segment, single round, ends assumed
Target sequence (chain): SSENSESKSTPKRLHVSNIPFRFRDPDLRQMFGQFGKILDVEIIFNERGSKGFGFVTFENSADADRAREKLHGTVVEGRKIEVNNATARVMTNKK
Strand | RBNS enrichment (R)
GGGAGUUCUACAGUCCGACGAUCAGGUGGGAGGGAGGAACACCGGUGCCUCGGUCACUCUGGGGGCAGUUUAGAUGCUGUGAAAUUAAACCUGUUCUAAGUGUACUUGUUUGAAUUAAUUGUAUUGUAAUAUUUGGAAUUCUCGGGUGCCAA | 0.657
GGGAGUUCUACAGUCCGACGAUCGCGGUGACGACUGCUCCAUGGGGAAGCUAAAAUAUCCUCGCCAGUUCCGGAGCACCCUUGUGAAGAAAAUGUGUUCUUUCUUCCGAUGGGUCCAGUUGCAGUGGCCAAUUUGGAAUUCUCGGGUGCCAA | 0.421
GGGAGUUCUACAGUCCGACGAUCGAUUGACUAGAAUAUUUCUCCCCCCUGCCCCUUGAUGUGUGAUGUCACCACCUGGUCCUAAUUUAUGUGCAGGAGCACGACACCACUUGUCUCCAGCGCCACACAUCCGAUGGAAUUCUCGGGUGCCAA | 0.476
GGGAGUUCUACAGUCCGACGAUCAGCUGACAUAGUGUUCUGCCAUGUAAUGUUUAUAGCUGCUGAUGUAUGCACAUUUGGGGGUAUAUCUAUUUCUGAAGAGGUAAGCUGAUCAAAAUAAAUAGAGUGUAAAUUGGAAUUCUCGGGUGCCAA | 0.447
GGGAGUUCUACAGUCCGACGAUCAAUGAUGCAAGAAAAUCAAAUGGGAAUCUGGGGACCCAACACAACAUCCUGAAGAUUAUUAAAAGGAAAAGAUGCUGAUUGGUACAUAAAUCUUUUACAUGGCCUUGGUCUGGAAUUCUCGGGUGCCAA | 1.03
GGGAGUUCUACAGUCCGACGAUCUAACUAGGACCAUUUUCCUGAAUUGGACUAUAUAACUCAGCAGUAUGUUUCAGUCUUUCGGAGUAAAUCACAUUUGUGAUAAUCAUACUAGAUCUCUGUCUUCAGUCUCAUGGAAUUCUCGGGUGCCAA | 0.435
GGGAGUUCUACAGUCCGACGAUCUGGUGCCCUGGGCCGUCCCUGUGUGAACGCAGGCAAAAGCAGCCCAGUCCCCCUCACUGCUUGAGCUAACACUGCCACCUCUUUUGUGUGAGCACAAAAGCCACGUCCCAUGGAAUUCUCGGGUGCCAA | 0.178
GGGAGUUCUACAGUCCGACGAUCCCUGGAAGCAGCCCCAUUACCCUGAGAAUGCGGAGCGCCCUGGCCCACCUCGCCCUGUGUUUCCAGGCCUGCACGUCUGGUCCUUCAGCUGCACAUGGAACUGCAGGGCAUGGAAUUCUCGGGUGCCAA | 0.58
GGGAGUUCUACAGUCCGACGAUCGGAGGGGGCUGUGUUGUGAGCCCUCCCGGUUCUCACCUCGCCUGGCACUUAACCACACCCUGGUUUUGUGUAGCCGCCAGCUCUCUUCUGGUUGGGCCUUUGAAAGGCUCUGGAAUUCUCGGGUGCCAA | 0.353
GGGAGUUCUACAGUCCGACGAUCCAUAACUGAGCUCAAGCUCUUGCCAAACACCAACAAGCAAGAUGGUUGCAACCUGGCAACAUUGAAUCCACCACCCUUGGGCUCCCUCUGGAAGCCCCAGCACCGGGGGGUGGAAUUCUCGGGUGCCAA | 0.565

Other studies, line by line
Molecule | target | test | system | setting | scale | endpoint | result
PhoQ, residues 284 288 289 292 302 303 AQGLTV | PhoP, residues 12 14 15 18 19 LHATL (Escherichia coli, UniProt P23836) | Sort-seq, item: YFP reporter | E. coli | PhoQ-PhoP variant library, together with: 10 µM Mg2+ | reference: high Mg2+ state, higher = stronger signaling | fold induction | 8.83
